Results gathered from unrelated publications.
Numbered parts are unrelated; each lists some results of a single study.

Sample 1
Target: Interferon regulatory factor 7, full length, phosphomimetic (IRF7, Homo sapiens, UniProt Q92985, residues 1-503, S471D/S472D/S475D/S476D/S477D/S483D/S484D/S487D)
Chain of UniProt Q92985 (whole entry, unmodified, looked up): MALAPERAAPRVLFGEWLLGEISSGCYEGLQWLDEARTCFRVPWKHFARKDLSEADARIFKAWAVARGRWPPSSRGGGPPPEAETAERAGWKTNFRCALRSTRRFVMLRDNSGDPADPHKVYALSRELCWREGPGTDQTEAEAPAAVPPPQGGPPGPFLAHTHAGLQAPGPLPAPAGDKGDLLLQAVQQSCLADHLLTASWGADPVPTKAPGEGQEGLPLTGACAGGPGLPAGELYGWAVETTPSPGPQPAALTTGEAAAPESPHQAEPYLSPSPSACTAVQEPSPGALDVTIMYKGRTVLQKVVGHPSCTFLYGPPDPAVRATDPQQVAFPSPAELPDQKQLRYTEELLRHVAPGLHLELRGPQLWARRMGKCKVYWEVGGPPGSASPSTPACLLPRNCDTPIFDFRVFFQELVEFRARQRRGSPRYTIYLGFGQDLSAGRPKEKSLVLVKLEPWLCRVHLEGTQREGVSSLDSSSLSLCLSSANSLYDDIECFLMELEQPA
Technique: protein-binding microarray
Molecule type: double-stranded DNA, one strand shown
Sample: in vitro
Tested at: 2200 nM top
Notes: 60-bp whole probe
Together with: salmon DNA 0.4 mg/ml
Reference: random background probes
Reading: higher = stronger binding
Endpoint: fitted relative affinity
GCCTAGCACGACGGTCTCGGGTTCGGGACGTGCTAGGTCTTGATTCGCTTGACGCTGCTG: 0.266 z-score
GCCTAGCACTTAGGTTTCGGGTATCGGTTAGTGCTAGTCTTGATTCGCTTGACGCTGCTG: 6.55 z-score
GCCTAGCACTTAGATTTTAGTTCCGATTAGTGCTAGGTCTTGATTCGCTTGACGCTGCTG: 1.06 z-score
GCCTAGCACCTTTCTTTGCTTCACCCTGGGTGCTAGGTCTTGATTCGCTTGACGCTGCTG: 1.19 z-score

Sample 2
Target: Sal-like protein 4, full length isoform A (SALL4, Homo sapiens, UniProt Q9UJQ4, residues 1-1053)
Chain of UniProt Q9UJQ4 (whole entry, looked up): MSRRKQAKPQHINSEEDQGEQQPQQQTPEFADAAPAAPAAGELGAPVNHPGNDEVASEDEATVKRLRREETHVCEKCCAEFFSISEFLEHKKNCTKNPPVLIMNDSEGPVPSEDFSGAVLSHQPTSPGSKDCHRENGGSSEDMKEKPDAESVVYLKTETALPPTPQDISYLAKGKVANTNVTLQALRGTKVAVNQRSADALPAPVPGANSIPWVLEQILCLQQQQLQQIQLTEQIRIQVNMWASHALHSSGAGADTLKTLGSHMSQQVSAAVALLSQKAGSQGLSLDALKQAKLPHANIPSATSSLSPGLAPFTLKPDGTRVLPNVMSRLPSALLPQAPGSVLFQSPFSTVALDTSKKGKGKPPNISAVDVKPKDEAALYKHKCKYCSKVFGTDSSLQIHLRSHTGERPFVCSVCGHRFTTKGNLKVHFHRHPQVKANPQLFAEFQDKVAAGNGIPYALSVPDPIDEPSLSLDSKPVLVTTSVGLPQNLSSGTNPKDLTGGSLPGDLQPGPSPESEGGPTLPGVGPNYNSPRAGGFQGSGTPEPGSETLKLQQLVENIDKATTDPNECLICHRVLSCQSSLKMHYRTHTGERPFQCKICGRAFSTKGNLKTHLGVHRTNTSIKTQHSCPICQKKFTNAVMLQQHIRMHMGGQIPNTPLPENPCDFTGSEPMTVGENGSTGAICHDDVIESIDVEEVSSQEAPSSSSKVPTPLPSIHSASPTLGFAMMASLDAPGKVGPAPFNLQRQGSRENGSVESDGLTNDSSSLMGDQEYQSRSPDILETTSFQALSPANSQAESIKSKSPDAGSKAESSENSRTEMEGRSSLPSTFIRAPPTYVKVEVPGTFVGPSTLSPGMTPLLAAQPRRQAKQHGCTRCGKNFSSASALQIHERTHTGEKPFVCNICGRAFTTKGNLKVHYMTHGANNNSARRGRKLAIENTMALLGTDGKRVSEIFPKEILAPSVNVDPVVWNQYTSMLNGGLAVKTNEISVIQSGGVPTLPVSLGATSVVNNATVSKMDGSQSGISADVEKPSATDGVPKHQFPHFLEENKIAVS
Technique: universal PBM
Molecule type: double-stranded DNA, one strand shown
Sample: in vitro
Tested at: 600 nM
Notes: 8-mer, flanks averaged, mean of replicates
Reading: higher = stronger binding
Endpoint: E-score
ATGTTTCG: 0.0978
GAAGAGTA: 0.152
ACTTCTTA: 0.154
AAGGTTGT: 0.0444
CGCACTTC: -0.229

Sample 3
Target: Phosphate system positive regulatory protein PHO4, full length, GST-tagged (PHO4, Saccharomyces cerevisiae, UniProt P07270, residues 1-312)
Technique: competition protein-binding microarray
Molecule type: double-stranded DNA, one strand shown
Sample: in vitro
Tested at: 2 µM
Notes: whole 60-bp probe, lowest competitor level
Together with: Cbf1 competitor, 0.05 µM
Reading: higher = stronger binding
Endpoint: fluorescence intensity
Target sequence (chain): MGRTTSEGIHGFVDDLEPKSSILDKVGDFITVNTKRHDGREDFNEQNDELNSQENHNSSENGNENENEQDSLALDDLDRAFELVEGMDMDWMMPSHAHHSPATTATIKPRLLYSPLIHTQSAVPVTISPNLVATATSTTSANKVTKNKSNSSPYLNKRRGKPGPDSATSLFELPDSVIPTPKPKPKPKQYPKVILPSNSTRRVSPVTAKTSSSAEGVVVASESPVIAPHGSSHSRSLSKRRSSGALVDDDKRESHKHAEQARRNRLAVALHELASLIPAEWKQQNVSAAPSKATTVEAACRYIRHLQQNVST
GATCTTCTGGGCCGTAGCGTGATGGGGTCTGTAAATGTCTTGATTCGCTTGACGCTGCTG: 5630 a.u.
CCGACGTCGGAGAGGCAGGTGATGTTCGGCTCGGCCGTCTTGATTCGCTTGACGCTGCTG: 3760 a.u.
TGCGCAACAACTTGTTCAGTGGGTGTATGTCTAGAAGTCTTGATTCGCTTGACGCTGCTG: 4520 a.u.
TCGAAGAAACGAATTCACCTGATTGCAGCTGTAAAAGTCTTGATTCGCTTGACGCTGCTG: 2970 a.u.
CGGGGTTAAGTTTGCAAGGTGGGTGGCTTGCAGCAGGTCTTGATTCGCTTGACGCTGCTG: 4410 a.u.

Other studies, line by line
PhoQ, residues 284 288 289 292 302 303 SIHMAM — fold induction (PhoP, residues 12 14 15 18 19 SQCLL (Escherichia coli, UniProt P23836); Sort-seq, measured: YFP reporter; E. coli; PhoQ-PhoP variant library, together with: 10 µM Mg2+; reference: high Mg2+ state, higher = stronger signaling): 12.6

Some of these lines once more (sample 3):
TGCGCAACAACTTGTTCAGTGGGTGTATGTCTAGAAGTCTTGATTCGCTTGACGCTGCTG: 4520 a.u.
TCGAAGAAACGAATTCACCTGATTGCAGCTGTAAAAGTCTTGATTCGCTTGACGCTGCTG: 2970 a.u.
